Measurements gathered from unrelated publications.
Each numbered part is a random draw from the data of one study; scales do not carry over between parts.

Sample 1
Target: RNA binding protein fox-1 homolog 2, RRM domain, GST-SBP tag (RBFOX2, Homo sapiens, UniProt O43251-10, residues 100-194)
Technique: RNA Bind-n-Seq
Molecule type: RNA
Matrix: in vitro
Tested at: 365 nM
Notes: natural RNA segment, single round, ends assumed
Relative to: no-protein control
Reading: higher = stronger binding
All sequences stand within: GGGAGUUCUACAGUCCGACGAUC … UGGAAUUCUCGGGUGCCAA
Construct (chain): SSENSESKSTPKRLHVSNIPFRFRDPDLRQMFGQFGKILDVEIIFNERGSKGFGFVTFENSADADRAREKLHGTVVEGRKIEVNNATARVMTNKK
Oligonucleotide | RBNS enrichment (R)
AAAAUAAGAAAGCUAUGAAGUAAAUGUUAACUUCUCUGUAGCAGCUAAUGCAUAGAGACACUAAAACCCACACCACAUUUUGUGGGAAAUGAGGAUCCUGAUCCUCUUUU | 0.445
ACACCGGGCGCGCAUAACCACCCCUAAUCCCGGUAUUCAGUGGUGAUGCCUAAAGGAAUGUCAGAAAUUUCCGGGUUUUGUCUAUUGUUGACGCCUACAGGGAAUGUGAA | 4.59
GAAGCUCUCCAUACUGAAGUACCAGAUGCAGCCCAAGUGAAUUUCCUGUAAUGCUGCUGCCCCUCCUUCCUGGGCAGCUCUACUGGGGAGAUGAGAAGCUCUUGAUCCAA | 0.294
ACACUUCCAGGAACAUUAACAUGAAGGGAAGAGGUGAGCCACCCUCCUUGCCUGGCCUUAGCCGUUUCUUGGAGCAUCACUAAUGGCCCAGCCCCCAGGCACAAGGGGCA | 0.633
AAGAAUUCAACUGGCUGAACCUUCAUACCCUGACUGAGAACUAGUGUCCAAUAAAAGGUGACUGGUUACAUACUGCUUGCCUGGUGUAGUCAUUGUUCUGACUUGUCCAC | 0.406
UGGCCUCUUGUGAAGCUCAUGAAACUUUAACAAGUGUUUGACCUUACAGCUUCCUCUGGGAGGUCGUGUAGACCCAGUGGGCAAGCAGGACAAGGGCCCAGAACUGAAAC | 0.267
UUCCUCAAAACCCCCUGGAGGGGCAAAAGAUGACAGCGACACAGAGAAAGUUUGGGGCAUGAUAUAUGUCCAUUUCUCUACGAAAUAUUUGUUAUGGAGCUGUGCUAAUU | 0.461
AAUACGAGUCAGAUGCUGCAGAAAUGUAAGGCACUUCAAGUCACUUAUGGGUUGGCUUGGUUUGGUUUUUCUUAGCACCACCUGGGAUCACAGAGGCUCCUAAGAUACAU | 0.33
CCCAUGCACUGUGCUGCUUCCUGAGCCUGGCCCUGCAUCCUCAUAGAGGUGCCGGGUUCCUAUUGGUUAGUUGGUUGUUUUUCCGUCUGAGUGAAUUUUUGCCAGUCUUG | 0.784
UGAGUUUUUAUUCUUCCUUCCUUCCAUACAACAAAACAAGUCCAUAGCCUAUGACCCAAGACUGUUUGUGGCCUUAGGAACAAUUGCUUAAGCAGGUCAAGCAUUUUGAA | 0.523
UUUCCAUGGUAGCGUGAGCAUUAGGUGACGUGGCUAGCGGAGGACUACCCUUGCUCACUGACUUCCUGUUGUAACACACUUUCCUUACGGAGCCUGGCUGUUUCACAGUA | 0.516
CCCACACCUGGGCAGGCUGUUGGUGUCUCCUUGGUCCUUAGGCAGAUACUCCCCUGAGUCCCCGAUCUAGGGCCAGCUGCAGAGGGCUCUCUCUAGGCAGAGCGUUCCUG | 0.235

Sample 2
Target: Interferon regulatory factor 5, full length, phosphomimetic (IRF5, Homo sapiens, UniProt Q13568-2, residues 1-514, S451D/S453D/S456D/S462D)
Technique: protein-binding microarray
Molecule type: double-stranded DNA, one strand shown
Matrix: in vitro
Tested at: 940 nM top
Notes: 60-bp whole probe
Added: salmon DNA 0.4 mg/ml
Relative to: random background probes
Reading: higher = stronger binding
All sequences stand within: GCCTAGCAC … GTCTTGATTCGCTTGACGCTGCTG
Oligonucleotide | fitted relative affinity [z-score]
GACGGTCTCCTACTGCGGACGTGCTAG | 0.118
GACGGACTGGGAACTGGGGACGTGCTA | -0.565
TTAGATATTAGTATCGATTAGTGCTAG | 5.78
GACGGCCTCCTTATCCTGACGTGCTAG | -0.0939
TTGGAACTGGGGTATCGATTAGTGCTA | 2.71
GCTTCTATGTAGTTGATGAAGTGCTAG | -0.262
GACGGACTGCTACTGCTGATGTGCTAG | -0.334
TTAGGACTGGGACAGGGTTAGTGCTAG | -0.832
TTAGAACTTAGTTTCGATTAGTGCTAG | 9.17
CTTCCTCTTTCTCTGCTACCGTGCTAG | 2.16
TTGGGTTTCGGGTTTCGGTTAGTGCTA | 10.7
TTAGGTATCGACTATCGGATAGTGCTA | 5.67
GTGAGAAATAAGTTTCTTTTGTGCTAG | 0.467
CCTGGACGGGAGTGCGGTGCGTGCTAG | 0.281
TGCTTTCTCTTTCACTGCTGGTGCTAG | 3.64
TTAGGTTTCGGTCTCGGTTTGTGCTAG | 15.7
GACGGTCTGCTTTTCCTGACGTGCTAG | -0.115
GACGATATCAGTCGCGAGACGTGCTAG | -0.183
GACGGTATCGGTTTCAGGACGTGCTAG | 8.3
GGCTCCTCCCCGCTTCTGGAGTGCTAG | -0.0951
TTAGGTTTCGGAATGGGTTAGTGCTAG | 8.63
GTAGGACTGGGTCTCGGTTAGTGCTAG | 1.11
GAATGATTACATATATGTTGGTGCTAG | 0.0023
CTAGGTTTCGGGTATCGGTTAGTGCTA | 10.2
TTAGGTAACGGTATCGGTTAGTGCTAG | 4.35

Sample 3
Target: Ras GTPase-activating protein-binding protein 1, RRM domain (G3BP1, Homo sapiens, UniProt Q13283)
Chain of UniProt Q13283 (whole entry, looked up): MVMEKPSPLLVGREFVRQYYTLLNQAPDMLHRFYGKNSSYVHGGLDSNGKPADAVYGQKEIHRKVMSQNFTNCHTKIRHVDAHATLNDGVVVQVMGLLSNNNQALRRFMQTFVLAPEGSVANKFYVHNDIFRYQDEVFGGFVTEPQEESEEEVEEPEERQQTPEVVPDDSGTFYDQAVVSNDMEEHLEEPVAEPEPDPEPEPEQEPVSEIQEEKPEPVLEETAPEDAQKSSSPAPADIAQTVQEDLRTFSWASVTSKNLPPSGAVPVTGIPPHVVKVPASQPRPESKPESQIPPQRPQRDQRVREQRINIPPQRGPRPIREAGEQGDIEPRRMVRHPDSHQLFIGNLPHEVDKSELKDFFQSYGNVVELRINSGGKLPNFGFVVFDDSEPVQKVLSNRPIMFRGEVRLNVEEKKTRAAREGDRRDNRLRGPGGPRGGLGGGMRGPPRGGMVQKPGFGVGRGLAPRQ
Technique: RNA Bind-n-Seq
Molecule type: RNA
Matrix: in vitro
Tested at: 1 µM
Notes: whole 134-nt RNA, ends assumed
Added: 150 mM KCl
Relative to: input library
Reading: higher = stronger binding
All sequences stand within: GGGAGUUCUACAGUCCGACGAUC … UGGAAUUCUCGGGUGUCAAGG
Oligonucleotide | log2 enrichment
CCUCAAGUCCUGUGCUACACAUCGUAUGUACCGAAUCGGGAGGGGAGGAGGGGAAAGUAUUAUGUUACGCCGUUCGGAUCUGCACUUCCA | 0.275
GUCCUGUGCUACACAUCGUAUGUACCGAAUCGGGAAAGGGAAAAAGGGAAAAAAAGGGAAAGUAUUAUGUUACGCCGUUCGGAUCUGCAC | 0.335
GUAGAAAUUCAUGUAUAAAUGGAACCAUAUAGUACAUACAUAUCAUACUCUUAGGUCUGGCAAAUAUUUGAGGUUCAUCCAUAUUUUAUA | -0.223
AUUUGUACACAGACAGGGAAACUGGCAAGCUGAAGGGAGAGGCAACGGUCUCUUUUGAUGACCCACCUUCAGCUAAAGCAGCUAUUGACU | 0.0122
CACAGACAACACGCACCCACACAGAUACAGAGGGAAGGGGUUGGGAUGGGGACAGGGUGCACAGCAGGGCGGGGUAGGACCCCAGCCCCU | -0.00682
CAAGUCCUGUGCUACACAUCGUAUGUACCGAAUCGGGUUUUUUUGGGUGGGAGGGAAAGUAUUAUGUUACGCCGUUCGGAUCUGCACUUC | 0.472
UCCUCAAGUCCUGUGCUACACAUCGUAUGUACCGAAUCGGUGGUUUGGUGGAAAGUAUUAUGUUACGCCGUUCGGAUCUGCACUUCCAGC | -0.235
UAUUAAUUUGAUAUAUUUAUUAUGAUUUGUAGAGGACGUCGGUGAUGAAGGAGAAGAAGAAAAAGAAUUCAUUUCCUAUAACAUCAACAU | -0.3
AGUCCUGUGCUACACAUCGUAUGUACCGAAUCGGAAAAAGGGAAAAAGGGAAAAAGGAAAGUAUUAUGUUACGCCGUUCGGAUCUGCACU | -0.00147
GUCCUGUGCUACACAUCGUAUGUACCGAAUCGGGGAAAAGGGGAAAAGGGGAAAAGGGAAAGUAUUAUGUUACGCCGUUCGGAUCUGCAC | 0.383

Sample 4
Target: Histone acetyltransferase KAT6A, winged helix 2, GST fusion (KAT6A, Homo sapiens, UniProt Q92794, residues 85-181)
Technique: protein binding microarray
Molecule type: double-stranded DNA, one strand shown
Matrix: in vitro
Tested at: not given
Notes: 8-mer, flanks averaged, mean of 2 arrays, mostly near background
Relative to: not given
Reading: higher = stronger binding
Residues (chain): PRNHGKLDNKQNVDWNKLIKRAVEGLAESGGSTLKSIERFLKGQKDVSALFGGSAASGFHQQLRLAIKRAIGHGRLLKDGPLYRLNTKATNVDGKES
Oligonucleotide | E-score
AGACGTAG | -0.0971
GACGTGCC | -0.125
CCCCCTAC | -0.209
ACACCGAA | -0.0292
AGTCGCGG | 0.0552
AAGGCGGT | 0.0453
AAACGGAA | 0.0116
GAGGGTCA | -0.053
CGTCAAGC | 0.075
AGCTATAT | 0.0396
AAGGGGCC | 0.0852
GCTTTACA | -0.0895
GTCCATTA | -0.00436
CAGCGGAG | 0.172
CGCATATA | -0.136
AATGGCCA | -0.216
ACCGGGTC | -0.0741
GCTGTTCA | 0.107
CAACTTTA | 0.0203
AGGTTACG | -0.0823
GCTTATAA | -0.0184
CCTTCCAC | -0.13
AGCCGGAA | 0.188
GAACCGTC | -0.0983
CACGCACA | 0.158
